Measured values pooled from the literature.
Parts stem from different laboratories: compare values within a part only.

Series 1 — technique: universal PBM; form: double-stranded DNA, one strand shown; sample: in vitro; tested at: not given; direction: higher = stronger binding
Target: Sal-like protein 4, full length isoform B (SALL4, Homo sapiens, UniProt Q9UJQ4-2, residues 1-616)
Setting: 8-mer, flanks averaged, mean of replicates
Target sequence (chain): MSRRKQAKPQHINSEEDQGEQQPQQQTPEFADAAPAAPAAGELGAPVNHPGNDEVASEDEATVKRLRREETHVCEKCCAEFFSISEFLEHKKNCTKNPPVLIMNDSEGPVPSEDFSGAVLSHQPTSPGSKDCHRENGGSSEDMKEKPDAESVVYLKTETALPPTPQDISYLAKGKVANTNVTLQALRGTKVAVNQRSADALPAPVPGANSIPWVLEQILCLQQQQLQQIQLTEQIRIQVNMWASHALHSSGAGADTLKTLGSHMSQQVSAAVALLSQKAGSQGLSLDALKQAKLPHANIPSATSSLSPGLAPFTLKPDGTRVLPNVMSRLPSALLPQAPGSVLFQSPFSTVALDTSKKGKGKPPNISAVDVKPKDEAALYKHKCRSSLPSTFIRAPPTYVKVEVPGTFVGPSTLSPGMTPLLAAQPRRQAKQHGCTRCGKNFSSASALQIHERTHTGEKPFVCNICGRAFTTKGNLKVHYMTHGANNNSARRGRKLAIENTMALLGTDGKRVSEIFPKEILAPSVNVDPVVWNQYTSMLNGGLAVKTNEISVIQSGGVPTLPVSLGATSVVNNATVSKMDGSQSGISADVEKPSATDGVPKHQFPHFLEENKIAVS
For `ACACACTC`, the E-score was 0.107.
For `CTTTGATA`, the E-score was 0.17.
The E-score of `CGTGCCAC` is reported as -0.331.
`CTTTAGTC` has an E-score of 0.027.
`ACTAATGC` has an E-score of 0.0677.
For `CTAAATTA`, the E-score was 0.31.
The E-score of `ACACTGTA` is reported as 0.111.
The E-score of `CCGCGTTC` is reported as -0.214.

Series 2 — technique: protein-binding microarray; form: double-stranded DNA, one strand shown; sample: in vitro; tested at: not given; direction: higher = stronger binding
Target: Protein C-ets-1 (ETS1, Homo sapiens, UniProt P14921, residues 1-441, K379A, full length assumed)
Sequence of UniProt P14921 (whole entry, unmodified, looked up): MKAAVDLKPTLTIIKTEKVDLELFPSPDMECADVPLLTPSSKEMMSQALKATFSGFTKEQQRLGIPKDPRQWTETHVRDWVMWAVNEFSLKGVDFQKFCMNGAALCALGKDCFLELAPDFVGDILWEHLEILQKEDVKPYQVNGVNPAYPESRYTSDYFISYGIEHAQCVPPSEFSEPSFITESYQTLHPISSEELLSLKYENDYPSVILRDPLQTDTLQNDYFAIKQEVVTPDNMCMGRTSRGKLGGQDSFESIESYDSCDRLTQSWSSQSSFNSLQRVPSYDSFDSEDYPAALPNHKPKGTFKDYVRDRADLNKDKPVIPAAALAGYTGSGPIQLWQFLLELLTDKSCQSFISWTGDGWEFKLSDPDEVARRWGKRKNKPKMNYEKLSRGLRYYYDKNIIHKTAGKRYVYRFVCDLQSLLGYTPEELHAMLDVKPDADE
Setting: k-mer, scored over probes, only values ≥0.25
The E-score of `GGTTATTA` is reported as 0.283.
The E-score of `GATAACAA` is reported as 0.265.
`CGTAACAG` gave an E-score of 0.297.
`ACCGTCGG` has an E-score of 0.314.
With `TAACTACA` the E-score was 0.257.

Series 3 — technique: protein binding microarray; form: double-stranded DNA, one strand shown; sample: in vitro; tested at: not given; relative to: not given; direction: higher = stronger binding
Target: Histone acetyltransferase KAT6A, winged helix 2, GST fusion (KAT6A, Homo sapiens, UniProt Q92794, residues 85-181)
Setting: 8-mer, flanks averaged, mean of 2 arrays, mostly near background
Target sequence (chain): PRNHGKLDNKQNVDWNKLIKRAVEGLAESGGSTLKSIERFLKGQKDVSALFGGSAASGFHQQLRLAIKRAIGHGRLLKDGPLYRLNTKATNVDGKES
The E-score of `CACGGCCG` is reported as 0.162.
`CTTATGTC` gave an E-score of 0.028.
`CTCTATCC` gave an E-score of -0.0618.
For `GAGGTAGA`, the E-score was -0.102.
For `ACTTGGAT`, the E-score was -0.128.
For `CTTTGTTC`, the E-score was 0.0768.
With `AACGCTAG` the E-score was -0.0539.
The E-score of `CCGGGGAC` is reported as 0.0772.
The E-score of `AATGCTCG` is reported as 0.0794.
With `AAGCTTTG` the E-score was -0.114.

Mixed results
With `PhoQ, residues 284 288 289 292 302 303 TLASMF` the fold induction was 2.63 (PhoP, residues 12 14 15 18 19 NMSFL (Escherichia coli, UniProt P23836); Sort-seq, refers to: YFP reporter; E. coli; PhoQ-PhoP variant library, together with: 10 µM Mg2+; relative to: high Mg2+ state, higher = stronger signaling).

Excerpt of the above (series 1):
For `CTTTGATA`, the E-score was 0.17.
The E-score of `CGTGCCAC` is reported as -0.331.
`CTTTAGTC` has an E-score of 0.027.
`ACTAATGC` has an E-score of 0.0677.
